Assay results collected from several papers.
Parts stem from different laboratories: compare values within a part only.

Study 1 — technique: RNA Bind-n-Seq; form: RNA; sample: in vitro; tested at: 365 nM; relative to: no-protein control; direction: higher = stronger binding
Target: RNA binding protein fox-1 homolog 2, RRM domain, GST-SBP tag (RBFOX2, Homo sapiens, UniProt O43251-10, residues 100-194)
Notes: natural RNA segment, single round, ends assumed
Target sequence (chain): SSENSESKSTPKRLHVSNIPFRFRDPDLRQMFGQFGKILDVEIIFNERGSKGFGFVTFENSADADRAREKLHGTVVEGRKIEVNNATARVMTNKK
Strand	RBNS enrichment (R)
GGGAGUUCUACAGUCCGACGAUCUCAGACGUGGGACUGCAGAGUCUGUUUGGAUUUGACACGGGGAGUCCUUGCUGACCUCCUGUCUCCCUAGAGCACAAACAGGAGGGGGCAAGCCCCUUGAAGGUUUGGAUUGGAAUUCUCGGGUGCCAA	0.349
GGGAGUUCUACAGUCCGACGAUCAGGAAAAAACCAACAACUCUAUUCAUUCCCAAACAAAAUCUCUUCCCCCUUAGUCAAUAGCUUGCGAAAGACAUCUUAACUCACCCUUGCAGAUAAGUCUUGGAGUGAAAUGGAAUUCUCGGGUGCCAA	0.97
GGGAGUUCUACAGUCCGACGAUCACUUUAUAACCCUUACUGGACAACACACAGAUCCUUGAGCUCACGCUGCAGGAUAGUACAGUUUUACCGCAGAGGGAAUCUGGAACAGUGGAAUCAUGUGUCUGCCCUGUUGGAAUUCUCGGGUGCCAA	0.299
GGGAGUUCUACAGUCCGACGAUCUUCUCUCAGUGGCACAUUUUGCUUUUUCUGAGCCCCAAAUACAUUGCCUGGGCAUGAACAUUGUUACCGUAAAUUGCACAUGGUCAUGGACUGAAUUAUGUGACUUUAAAUGGAAUUCUCGGGUGCCAA	0.906
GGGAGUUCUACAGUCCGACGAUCUGAAUGAAUUACAGUUUUUAUUACGGAAUCUCGCCGCUACCCCUGUUCCCCUCCUGUGUCCUUUUUCUCGUUCUUUCUUUCCUGUCCAGUGCAUGAUGUUUAAGGCCACAUGGAAUUCUCGGGUGCCAA	3.22
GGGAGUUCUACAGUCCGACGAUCUACAGCAGACUGUAGUACCUCACAGCCCACUUGAGCCCUGGCUUCUCUCAGCAUCACAGAUGAAACUUAGCUUGAAUGGGUCAAUUCCACCUGUUUUUCUGUGCUCCAGCUGGAAUUCUCGGGUGCCAA	0.875
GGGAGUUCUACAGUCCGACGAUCCAUGCCCCGCGCCUGAGACUGGCUGGAAAUGCUCUGACUCCUGUGAAGGCACAGCCAGCGUUGUGGCCUGAGGGAGGCCCUGCUGGGACCCUGAUCUGGGCCUUCCUGUCUGGAAUUCUCGGGUGCCAA	0.476
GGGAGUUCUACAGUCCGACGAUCACUGCCUACAUUUGCGUUGCUUUCUACAUAGAGACUUGUAUAAUAGUAUUAAUAGUAGCUCAUUCUCUCUAAAAAUUUACUGCCCACUGAUAGGAUGUUUUGUUUCCUUGUGGAAUUCUCGGGUGCCAA	0.501

Study 2 — technique: universal PBM; form: double-stranded DNA, one strand shown; sample: in vitro; tested at: not given; direction: higher = stronger binding
Target: Sal-like protein 4, full length isoform B (SALL4, Homo sapiens, UniProt Q9UJQ4-2, residues 1-616)
Notes: 8-mer, flanks averaged, mean of replicates
Residues (chain): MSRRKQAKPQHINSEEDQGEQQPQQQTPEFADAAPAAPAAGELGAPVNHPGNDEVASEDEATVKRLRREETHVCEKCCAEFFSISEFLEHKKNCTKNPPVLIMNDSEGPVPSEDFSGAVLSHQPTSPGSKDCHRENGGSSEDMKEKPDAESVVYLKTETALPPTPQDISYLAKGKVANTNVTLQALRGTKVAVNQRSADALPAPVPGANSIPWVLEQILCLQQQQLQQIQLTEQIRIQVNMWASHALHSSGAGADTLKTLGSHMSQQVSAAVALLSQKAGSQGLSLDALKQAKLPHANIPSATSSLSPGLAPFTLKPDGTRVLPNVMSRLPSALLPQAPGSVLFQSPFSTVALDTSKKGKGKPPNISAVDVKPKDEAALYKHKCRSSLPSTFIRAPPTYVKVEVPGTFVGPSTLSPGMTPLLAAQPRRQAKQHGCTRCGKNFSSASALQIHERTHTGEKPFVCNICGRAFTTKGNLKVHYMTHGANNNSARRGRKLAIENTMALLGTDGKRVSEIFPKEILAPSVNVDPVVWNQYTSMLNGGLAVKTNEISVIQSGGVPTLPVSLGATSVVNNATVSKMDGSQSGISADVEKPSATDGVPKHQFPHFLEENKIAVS
Strand	E-score
GGAATCCC	-0.285
AGCGTACG	-0.0305
ATAACGTC	0.268
AGTTGGCG	-0.0831
ATCAACAT	0.281
AGAGTCTC	-0.235
TCCCAGCA	-0.19
AGCTTGGG	-0.137
AGGGCCGA	-0.2
AGCTTCAT	0.0215
AAGACAGC	-0.145
CTGCACAA	0.0626
ACATAACA	0.294
AAAGACTG	0.0059
ATATCGCC	0.125
AACAAGGA	0.164
CCATTGAC	-0.0191
CACGTTCA	0.00447
AATCCCGG	-0.244
GCTTACAC	-0.234
AACGATAC	0.163
AGCACGAT	0.0353
AACAAGCA	0.0788
CCCGATTA	-0.0368
ACCCAGAA	0.0213

Study 3 — technique: protein binding microarray; form: double-stranded DNA, one strand shown; sample: in vitro; tested at: not given; relative to: not given; direction: higher = stronger binding
Target: Histone acetyltransferase KAT6A, winged helix 1, GST fusion (KAT6A, Homo sapiens, UniProt Q92794, residues 1-85)
Notes: 8-mer, flanks averaged, mean of 2 arrays, mostly near background
Construct (chain): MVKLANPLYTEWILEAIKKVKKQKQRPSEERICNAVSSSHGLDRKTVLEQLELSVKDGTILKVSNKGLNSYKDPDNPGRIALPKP
Strand	E-score
AAGACCAG	-0.165
CTGATTTC	-0.199
GACCGGGA	0.265
ATAGGAGA	-0.207
AGGGAAGC	0.0322
GAGAACAC	-0.152
GCTGCGAC	0.133
ACCTAACT	-0.0632
GGGGTAGA	-0.133
ATGCTAGC	0.0233
ATTCTGCC	0.015
CAGAACGG	0.0106
GGTACATA	0.042
GCATTGCC	0.14
ATTATTTA	-0.0341
ACACAGAA	-0.203
TCTTAAGA	-0.242
CCATGACG	0.0686
CCATTACG	0.0802
GCATCGAC	-0.14
GCAATTAC	0.228
TCATGGGA	-0.213
CCCGACAG	0.191
GAAGCTGC	0.0274
AAGCGTGC	0.213

Study 4 — technique: aptamer microarray, sandwich; form: DNA with 2'F-ANA; sample: in vitro; tested at: 200 nM; with: Cy3 exosite-II aptamer, 400 nM; direction: higher = stronger binding; strand: GGTTGGTGTGGTTGG
Target: Prothrombin, mature alpha-thrombin (F2, Homo sapiens, UniProt P00734)
Notes: whole 15-mer aptamer, many near background
Modification	mean fluorescence intensity [a.u.]
2'F-ANA at 2 4 9 10 14 15	63.2
2'F-ANA at 2 6 7 8 9 13 15	294
2'F-ANA at 5 8 13 14 15	46.7
2'F-ANA at 2 3 5 7 8 9 12 14	72.3
2'F-ANA at 1 4 5 6 7 9 11 12 14 15	47.4
2'F-ANA at 1 3 5 6 7 9 10 12 13 14	44.5
2'F-ANA at 1 2 4 9 13 14 15	52.2
2'F-ANA at 3 5 7 8 9 10 12 13 14 15	69.3
2'F-ANA at 1 3 5 6 9 14	55.9
2'F-ANA at 1 2 4 7 9 12 13 15	172
2'F-ANA at 2 6 7 8 9 13 14 15	123
2'F-ANA at 1 4 6 7 8 11 13 15	89
2'F-ANA at 3 6 10 12 14 15	353
2'F-ANA at 4 5 6 7 8 9 11 12 13 15	75
2'F-ANA at 2 4 9 10 13 14	64.9
2'F-ANA at 1 2 3 6 7 11 15	156
2'F-ANA at 1 2 4 5 7 8 9 13 15	64.4
2'F-ANA at 2 3 6 8 10 13 15	259
2'F-ANA at 1 3 5 6 9 10 11 12 13 15	54.5
2'F-ANA at 2 6 7 8 9 10 11 12 13 15	117
2'F-ANA at 2 3 4 9 12 13	602

Excerpt of the above (study 2):
Strand	E-score
AGCGTACG	-0.0305
ATAACGTC	0.268
AGTTGGCG	-0.0831
ATCAACAT	0.281
AGAGTCTC	-0.235
TCCCAGCA	-0.19
